Assay results collected from several papers.
Numbered parts are unrelated; each lists some results of a single study.

Series 1 — method: universal PBM; molecule type: double-stranded DNA, one strand shown; medium: in vitro; tested at: not given; direction: higher = stronger binding
Target: Sal-like protein 4, full length isoform B (SALL4, Homo sapiens, UniProt Q9UJQ4-2, residues 1-616)
Setting: 8-mer, flanks averaged, mean of replicates
| Sequence | E-score |
| --- | --- |
| GATTTCCC | -0.0711 |
| AATTGAAA | 0.231 |
| CCTGGCCG | -0.257 |
| GTGGAGCA | -0.146 |
| CGAAAACA | 0.0194 |
| CGAGTTCA | -0.0383 |
| ACTCCCGC | -0.0414 |
| CATTTCAA | 0.323 |
| ATAAGTGA | 0.279 |
| GTTGAAAA | 0.144 |
| GGATCCAA | 0.0163 |
| AGATTATC | 0.187 |
| CTTGAATA | 0.245 |
| ATACTGAT | 0.259 |
| ATCTGTCG | -0.0448 |
| CCAGCAAA | 0.0399 |
| TAATCACA | 0.234 |
| GAGTGTAA | 0.0628 |
| ACTGACGG | -0.244 |
| CCCGCTCA | -0.346 |
| TGTGAACA | 0.0138 |
| AAGCCTGC | -0.22 |
| GGCGGATA | -0.146 |
| TACGAAGA | 0.229 |
| ACATTTAG | 0.224 |

Series 2 — method: aptamer microarray, sandwich; molecule type: DNA with 2'F-ANA; medium: in vitro; tested at: 200 nM; added: Cy3 exosite-II aptamer, 400 nM; direction: higher = stronger binding; sequence: GGTTGGTGTGGTTGG
Target: Prothrombin, mature alpha-thrombin (F2, Homo sapiens, UniProt P00734)
Setting: whole 15-mer aptamer, many near background
| Modification | mean fluorescence intensity [a.u.] |
| --- | --- |
| 2'F-ANA at 2 4 6 7 12 | 583 |
| 2'F-ANA at 4 5 6 8 9 10 11 12 13 | 50.4 |
| 2'F-ANA at 3 8 9 11 12 13 | 1170 |
| 2'F-ANA at 1 2 5 9 10 11 13 14 15 | 57.5 |
| 2'F-ANA at 1 3 4 5 6 7 9 14 15 | 50.1 |
| 2'F-ANA at 2 4 5 8 9 11 | 107 |
| 2'F-ANA at 1 3 7 9 10 12 13 | 332 |
| 2'F-ANA at 1 2 3 4 5 6 8 9 10 11 12 14 | 51.1 |
| 2'F-ANA at 3 4 7 8 10 11 13 | 332 |
| 2'F-ANA at 1 2 3 7 9 10 11 14 | 65.1 |
| 2'F-ANA at 10 11 13 14 15 | 96.6 |
| 2'F-ANA at 1 2 3 4 6 9 10 12 | 76.4 |
| 2'F-ANA at 1 3 4 5 6 9 12 13 14 | 48.8 |
| 2'F-ANA at 2 9 10 15 | 121 |
| 2'F-ANA at 1 2 3 4 6 7 9 11 | 104 |
| 2'F-ANA at 1 2 6 7 8 9 14 15 | 59.1 |
| 2'F-ANA at 1 2 5 6 9 10 13 14 | 46.5 |
| 2'F-ANA at 2 4 5 7 10 11 13 14 | 49.6 |
| 2'F-ANA at 2 4 7 9 11 14 15 | 88.2 |
| 2'F-ANA at 1 2 3 4 6 7 8 11 13 | 126 |
| 2'F-ANA at 3 5 8 10 11 | 65.8 |
| 2'F-ANA at 1 6 8 9 10 12 13 | 80.2 |
| 2'F-ANA at 3 4 6 8 9 11 13 14 | 217 |
| 2'F-ANA at 1 3 4 6 8 9 10 11 12 15 | 74.2 |
| 2'F-ANA at 1 2 6 11 12 13 14 15 | 65.8 |

Series 3 — method: RNA Bind-n-Seq; molecule type: RNA; medium: in vitro; tested at: not given; relative to: input RNA pool; direction: higher = stronger binding
Target: RING finger protein unkempt homolog, zinc fingers 1-6, GST-SBP tag (UNK, Homo sapiens, UniProt Q9C0B0, residues 30-357)
Chain of UniProt Q9C0B0 (30-357, looked up): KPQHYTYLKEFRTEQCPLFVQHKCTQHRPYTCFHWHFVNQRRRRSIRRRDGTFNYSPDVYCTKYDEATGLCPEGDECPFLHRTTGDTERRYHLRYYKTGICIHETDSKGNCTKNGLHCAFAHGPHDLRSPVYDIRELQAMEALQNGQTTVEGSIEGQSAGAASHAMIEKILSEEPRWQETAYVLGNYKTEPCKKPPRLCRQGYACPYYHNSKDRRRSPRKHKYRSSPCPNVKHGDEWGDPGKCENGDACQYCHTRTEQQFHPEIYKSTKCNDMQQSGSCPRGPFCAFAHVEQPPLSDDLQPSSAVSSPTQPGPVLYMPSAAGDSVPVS
Setting: RNA with constant flanks, human-mouse chimeric sites, ends assumed
Constant ends, left off below: GGGAGUUCUACAGUCCGACGAUC … CAACAGAGGAUUGAGCAUCA
| Sequence | bound/input enrichment [ratio] |
| --- | --- |
| UACUACUGAAUCUGUGAUAUUGGCAAUUAUUAUUAUGGCCAGGGUCAUCCCAUGAAGCCUCAUAGAAUCCGCAUGACUCAUAACUUGCUGCUAAAUUAUGGUUUAUACCGAAAAAUGGAA | 0.236 |
| CGCUGGCCCAAGCUGAUGGACUCUGAUGGCCUCCAUCUCUCAGGCACGUGUGCCUUCUCUUAGUCCCUUCUGGGUUGAUGUUAUGAACAGUAUCAUGGUGGUUUGAAAGCACCAGCUUUG | 0.306 |
| AGAAUCUUGGGACUGUUUUACUUAAUUGGUCAUUGAUAUCUCAACAAACAUGGAGAUAAGAUUAGAAAUCUUGACAUCAACAAGUAUUAAGCAGAAAAAACCAUGGCCACGUGUCUCCUG | 0.13 |
| UUGAAAACUGAUUCAAGUAAGUUUGAGUAUCACAAUGUUAGCUUUCUAAUUCCAUAAAAGUACUUGGUUUUUACAGUAACCCCACAUCAAUCCAUCAAGCGCCAUUUGUAAAGAGCAACU | 0.594 |
| CUCGGCACCGGCACGCUUUACAUCGCUGAGAGCCGCCUGUCCUGGUUAGAUGGUUCGGGAUUAGGAUUCUCACUGGAAUACCCCACCAUUAGUUUACAUGCGGUGUCCAGGGAUCCAAAC | 0.337 |
| GGACAUCUGUCAAAUUGUUAUGUUCCUGUGAAACAAGUGAACACUCUGAUACACUUCAUUUAGUUGUACAUUUAACUGAUAGAGAAAUGUAAAUAUGUUAAUCCAAGCAAUGUGUCACUU | 0.472 |
| GAUGAUAAUCACACAAACAAGUCACUGUUACAUGACCAGCCUUGGGAUUCUUUUCCUGAUUAAUAUUCUCCCUGGAACCACUAGCCAAGGGGAAUCAAGACGACAAGAACCUGGGGACUU | 0.181 |
| GAAACAUUUAAAUUUAAAGAAGCUGUUGUUCUAGGAAGUACGGACUUCCUAGAAGAUGAUAUAGAGAAAAUUGUAGAAGAACUGGGGAAAGAAUACAAGGGCAACGCCUACCAUCUGAUG | 1.17 |
| UGUAGUUGAUCCCCUGCUCAUUUUUCUUGCUCGGGUUUUUCCUUUAGGAAAAGCCUAAAGAUUAGGUUGUAAGAAAAACAGAAGCCAUGUUUCGAAGACCUGUGUUACAGGUAUUUCGUC | 0.127 |
| GCAGGAUCUUCUAAGUACCAGUGGGACAUUAUGAAAUCCCUUGGGCUCUCUGAUGACGACAUAGUGAAAUUUUCUGAAGCAGAGCACUGGCUUGAUUAUUUCCCACCACUGGCCGUUCAG | 0.296 |
| GAGUCGAGCAAACUUGAAACAAUUCGUUAUCUUGCAGAGCUUCGGUGCACUUGCUUGUGGCAAUAGCUGGGGUUUUAUAGGUUCUGGAAGGAGAACUGACGAUGAUGCUGCCGCUGCUGC | 0.7 |

Series 4 — method: RNA Bind-n-Seq; molecule type: RNA; medium: in vitro; tested at: 365 nM; relative to: no-protein control; direction: higher = stronger binding
Target: RNA binding protein fox-1 homolog 2, RRM domain, GST-SBP tag (RBFOX2, Homo sapiens, UniProt O43251-10, residues 100-194)
Setting: natural RNA segment, single round, ends assumed
Constant ends, left off below: GGGAGUUCUACAGUCCGACGAUC … UGGAAUUCUCGGGUGCCAA
Residues (chain): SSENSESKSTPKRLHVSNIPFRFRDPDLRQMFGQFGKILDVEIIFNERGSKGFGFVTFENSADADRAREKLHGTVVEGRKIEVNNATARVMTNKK
| Sequence | RBNS enrichment (R) |
| --- | --- |
| CUUCAGAUUCGAAGUGGGAGGCAACUCAAUGUGCCUGGGGCUCGCCAUGGGCCCACAGAGUCUCGCUAUCAUCCCCAGCGUCGCAGUGUGGCAGGUGUUUGUAGGCUGUG | 0.39 |
| CACCCAGUCCUUAGGACAAGUAGAAAGGGGCAUUCUGGCACUUGGCAUAACCUAUGCCACGAUGGUGAGAUAAUGUGAAAAAGUGGUAUCCUCUGAUGUCAGCGUAUUAG | 0.352 |
| CCGUCUUUGAUUCACCGGGAUGUACAGUUUACAGUUGAAGAGCAAACAGAAAGGUUUUCUCUUGGUGGGAUAUGCAGAACUUGGGAUGUGUGUAUAUAUAAAUAUAUAAU | 1.79 |
| GUUUCAAGCCAAAAACUCUCAAGACAGAAAAUUGCACCUCAGCUGGGUUGAUUUCAAAAUGCCAGCAUGGACAGUAUGGGAGGACGAUCCGGAUGUGUCAAAGAGAACUU | 2.05 |
| UAAUUUAUUUUGUUAACACCCCUAAUUACAACCAAAGUGAUGAUGUGGAGUCUUCUGUCUUCAUUUUGGCCCCAGCAUUCUUAAUUUCAAAGCUUUAUUCUGUCUGCCUA | 0.834 |
| CAACUGAUUUUGCUAAGCAGUCUUCCCCUUAUAACACCACAGGCCCUUCUGACACACAAAAAAAUGAAAGUUAAUCCUGGGUACAGCAUACAGUUUUACAUUUAAACGCA | 0.795 |
| GUGCGCCGCCCUAUAUUGAGGGCUCCAGCUCUCCCUUGGUUUUUGAAAGGGGUUUAUGUAUAAAUAUAUUUUAUGCCUUUUUAUUACAAGUCUUGUUACUCAAUGACUUU | 0.652 |
| ACUGAAAUCUGUAUCAGCUAAGAGUCCUCCAAUCCUGGUCCCAUUAACUCCAAGUGCCUUUUUGACAGUGACAACAGACAGUCCCUCGCUUUUUGUUGUUGUUGGUUUUC | 0.315 |
| GUGACUGCAGCGCCAAGCGGCAUCCACCAAGCAUCAAGUUGGAGAAAAGGGAACCCAAGCAGUAGAGAGCGAUAUUGGAGUCUUUUGUUCAUUCAAAUCUUGGAUUUUUU | 0.507 |
| GUCCAGAAGCCCUGGCACAGAAGUUCUUGGCCAGUCUCAUGUCACAUGUCACGAUGUCAGAUUCAACAGGAGAACUCUGUGCCCUUCCUAUAGACACCAAAUGUCUGGCA | 0.293 |
| CUGAGCAACUGGGCACGUGCUAGUACGCACCCCCUCCUACUCUAACUGUGCUAGCUCUUGGGUUGAGGAAUGGAAUGGGUAGCCUUCUGCUUACUGGAGAUGCACAGAGA | 3.13 |
| GCCUGACUCCGGCCAGGAGGGUCAGAAGAAGGACAAAGGGGAGAGCUGGGACAAGGCCUUGCCCCCUUCCUGCCAUCUCCCCAACCCACAGUCUCUCCACCUUUGCUUCU | 0.359 |

Some of these lines once more (series 1):
| Sequence | E-score |
| --- | --- |
| ATACTGAT | 0.259 |
| TGTGAACA | 0.0138 |
| AGATTATC | 0.187 |
| ACTGACGG | -0.244 |
| CGAGTTCA | -0.0383 |
| GAGTGTAA | 0.0628 |
| GATTTCCC | -0.0711 |
